Measurements of several laboratories.
± marks the error that the study gave.

SMILES | tested on | test | test system | conditions | scale | measurement | value
C[C@@H](Oc1ccc(S(C)(=O)=O)cc1C(=O)N1C[C@@H]2C[C@]2(c2cc(C(F)(F)F)on2)C1)C(F)(F)F |  |  | young humans, plasma | oral, 10 mg once daily, single dose, geometric mean |  | half-life | 43.7 h
O=C(Nc1cnccc1Cl)N1CCN(Cc2ccc3c(c2)OC(F)(F)O3)CC1 |  |  | healthy young men, plasma | oral, 10 mg once daily, day 1 |  | AUC(0-24) | 488 ng·h/mL
CCCC1CCC(c2ccc(OCC)c(F)c2F)CC1 (centres unmarked) |  |  | rat, fetus | 1000 ng/mL in perfusate, middle dose, mixture of 21 LCMs |  | fetal accumulation | 0.186 ± 0.094 ng/g
O=C(N[C@H](Cc1c[nH]c2ccccc12)C(=O)Nc1ccncc1)c1ccc(-c2ccc(F)c(Cl)c2)cc1F |  |  | Swiss Webster mouse, female, intestine | oral, 50 mg/kg, 8 h, 20% HPβCD vehicle |  | concentration | 11.9 µM
CO[C@H]1C[C@@H]2CC[C@@H](C)[C@@](O)(O2)C(=O)C(=O)N2CCCC[C@H]2C(=O)O[C@H]([C@H](C)C[C@@H]2CC[C@@H](OC(=O)NCCOCCOCCOCCOCCOCCOCCOCCOCCC(=O)N3CCc4cc(Cn5nc(-c6ccc7oc(N)nc7c6)c6c(N)ncnc65)ccc4C3)[C@H](OC)C2)C[C@@H](O)[C@H](C)/C=C(\C)[C@@H](O)[C@@H](OC)C(=O)[C@H](C)C[C@H](C)/C=C/C=C/C=C/1C |  |  | human, plasma | intravenous, 6 mg, cycle 1 day 1, arithmetic mean |  | Tmax | 58.8 min
Brc1cnc(Nc2cccc(CN3CCOCC3)c2)nc1NCCc1c[nH]cn1 |  | PAMPA | PBS | 5 h, pH 7.4 |  | effective permeability | 1.3 ×10⁻⁶ cm/s
CC[C@H](C)[C@H](NC(C)=O)C(=O)N[C@H]1CSSC[C@@H](C(=O)N[C@H](C(N)=O)[C@@H](C)O)NC(=O)[C@H](CCCNC(=N)N)NC(=O)[C@H](Cc2c[nH]cn2)NC(=O)[C@](C)(CC)NC(=O)CNC(=O)[C@H](Cc2c[nH]c3ccccc23)NC(=O)[C@H](CC(=O)O)NC(=O)[C@H](CCC(N)=O)NC(=O)[C@H](Cc2c[nH]c3ccccc23)NC(=O)[C@H](C(C)C)NC1=O |  | RP-HPLC, C18 | 28% acetonitrile isocratic | pH 7.4 |  | retention factor | 3.533 ± 0.007
CCC(C)n1ncn(-c2ccc(N3CCN(c4ccc(OCC5COC(Cn6cncn6)(c6ccc(Cl)cc6Cl)O5)cc4)CC3)cc2)c1=O (centres unmarked) |  | measured: respiratory thoracic mediastinal disorders | healthy human participants | oral, 200 mg, compound alone cohort |  | adverse event incidence | 7%
Cl.[2H]C([2H])([2H])CC(=O)c1cnc(NC(=O)C2CC2)cc1Nc1cccc(-c2ncn(C([2H])([2H])[2H])n2)c1OC |  |  | human, non-fasted | oral, 60 mg once daily, day 14, multiple dose, tablet, geometric mean |  | terminal elimination rate constant | 2.03e-05 s⁻¹
O=C(O)c1cc(O)c2c(c1)C(=O)c1cccc(O[C@@H]3O[C@H](CO)[C@@H](O)[C@H](O)[C@H]3O)c1C2=O | HK-2 co-cultured with HepaRG | MTT |  | 266.67 µM, 24 h | baseline: untreated control | cell viability | 93 ± 10.1%
O=C(Nc1nc2cccc(-c3ccc(CN4CCS(=O)(=O)CC4)cc3)n2n1)C1CC1 |  | measured: renal and urinary disorders | rheumatoid arthritis patients | oral, 30 mg once daily, 4 weeks, any relatedness |  | treatment-emergent adverse events | 0%
CN[C@@H](C)C(=O)N[C@H]1CN(S(=O)(=O)c2cccc(S(=O)(=O)N3CC[C@H]4CC[C@@H](C(=O)NC(c5ccccc5)c5ccccc5)N4C(=O)[C@@H](NC(=O)[C@H](C)NC)C3)c2)CC[C@H]2CC[C@@H](C(=O)NC(c3ccccc3)c3ccccc3)N2C1=O |  | LC-MS/MS, noncompartmental | human, plasma | 45 mg, cycle 1 day 1 |  | median Tmax | 30.6 min
COc1ccc(NC(=O)c2cnc(N3CCN(c4ccccn4)CC3)nc2N)cc1 |  |  | male rhesus monkey, venous plasma | intravenous, 105 MBq, 17 min |  | parent fraction | 24%
O=C(O)CCC(=O)O.[2H]C([2H])([2H])Oc1cc(C)c2[nH]ccc2c1CN1CC[C@@H](C2CC2)C[C@H]1c1ccc(C(=O)O)cc1 |  | multiple ascending dose | healthy Chinese subjects | 125 mg twice daily |  | subjects with TEAE Acne | 0%
C=CCN1CC(=O)N2[C@@H](Cc3ccc(O)cc3F)C(=O)N(Cc3cccc(N4CC(N5CCN(CC)CC5)C4)n3)C[C@@H]2N1C(=O)NCc1ccccc1 |  | measured: ALT increased | human advanced solid tumours | concentration not given, dose escalation any grade |  | treatment-related adverse events | 11.1%
CCn1cc(C(=O)N2CCOCC2)c(=O)c2cc(NC3Cc4ccccc4C3)cnc21 |  |  | human overall, fed, plasma | oral, 900 mg twice daily, day 1, tablet, arithmetic mean |  | AUC(0-12h) | 28100 ng·h/mL
Cn1cncc1-c1c(F)cncc1NC(=O)c1c(N)nn2cc(F)cnc12 |  | two-compartment PK model | xenograft-bearing mice, plasma |  |  | intercompartmental clearance | 1.02 mL/h/kg
COc1c(O[C@@H]2O[C@H](CO)[C@@H](O)[C@H](O)[C@H]2O)cc2c(c1O)C(=O)c1c(cc(C)c(O)c1OC)C2=O | HK-2 co-cultured with HepaRG | MTT |  | 133.33 µM, 24 h | baseline: untreated control | cell viability | 97.6 ± 11.2%
N[C@@H]1c2ccccc2OC12CCN(c1cnc3c(N4CCCc5ncccc54)n[nH]c3n1)CC2 |  |  | advanced metastatic solid tumour patients, plasma | oral, 40 mg once daily, cycle 1 day 1, geometric mean |  | AUC(0-tau) | 2740 ng·h/mL
O=C(O)[C@@H](O)Cc1ccccc1 |  |  | laying hens, female, fat | oral, 10.7 mg/kg dry feed, 7 days |  | share of total radioactive residue | 14 % TRR
